Measurements from different studies.
Protocols differ between the studies behind these lines. Values joined by “and” are separate records of one study, mostly repeats; a detail may differ. ± marks the error that the study gave. ≈ marks a conversion by molar mass, not a printed value.
UCHL1: Ubiquitin carboxyl-terminal hydrolase isozyme L1 (UCHL1, Homo sapiens, UniProt P09936)
UniProt P09936, sequence (whole entry, looked up): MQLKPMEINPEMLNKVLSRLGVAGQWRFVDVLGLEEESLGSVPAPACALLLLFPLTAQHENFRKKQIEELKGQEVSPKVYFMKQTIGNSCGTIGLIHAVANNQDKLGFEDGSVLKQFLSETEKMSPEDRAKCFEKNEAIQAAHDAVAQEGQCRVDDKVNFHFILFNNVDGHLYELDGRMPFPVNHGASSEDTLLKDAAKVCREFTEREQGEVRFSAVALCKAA

Compound	tested on	test	system	conditions	how to read	quantity	result
N=C(N)c1ccc(OCc2ccccc2COc2ccc(C(=N)N)cc2)cc1	Pseudomonas aeruginosa		ATCC 27853	concentration not given, with: rifampicin		MIC in combination	100 mg/L
COc1cc(C#CC(=O)c2ccc(C)cc2)ccc1O	Pseudomonas aeruginosa	static biofilm	PA14	10 µM, 24 h, static	reference: DMSO	biofilm formation	74%
C[C@@H](O)[C@H]1C(=O)N2C(C(=O)[O-])=C(SC3Cn4cnc[n+]4C3)[C@H](C)[C@H]12 (stereo partly shown)	Pseudomonas aeruginosa	checkerboard	carbapenem-resistant	concentration not given, with: anionic gold nanoparticle 8 µg/mL	reference: MIC alone over combination	MIC fold reduction	64 fold
COc1cc(C#CC(=O)CC(C)C)ccc1O	Pseudomonas aeruginosa	RT-qPCR, refers to: phzC1	biofilm cells	10 µM, 24 h	reference: untreated	mRNA level	63%
N=C(N)c1ccc(OCCC(CCOc2ccc(C(=N)N)cc2)c2ccccc2)cc1 (stereo not shown)	Pseudomonas aeruginosa	checkerboard	ATCC 27853	unit not given, with: rifampicin	lower = stronger synergy	FICI	≤ 0.125
CC[C@H](C)[C@H](NC(=O)CNC(=O)[C@@H](NC(=O)[C@H](Cc1ccccc1)NC(=O)[C@H](Cc1ccc(O)cc1)NC(=O)[C@@H]1CCC(=O)NCC(=O)NCC(=O)N[C@@H](C)C(=O)NCC(=O)N[C@@H](Cc2c[nH]cn2)C(=O)N[C@@H](C(C)C)C(=O)N2CCC[C@H]2C(=O)N1)C(C)C)C(=O)NCC(=O)N[C@H](C(=O)N1CCC[C@H]1C(=O)N[C@H](C(=O)N[C@@H](CO)C(=O)N[C@@H](Cc1ccccc1)C(=O)N[C@@H](Cc1ccc(O)cc1)C(=O)NCC(=O)O)[C@@H](C)CC)[C@@H](C)O	Pseudomonas aeruginosa			concentration not given		growth inhibition	no effect
COC(=O)[C@H](Cc1ccc(O)cc1)NCc1cc2ccccc2nc1SC	Pseudomonas aeruginosa			2 µg/mL, with: pentamidine 100 µM	reference: control	growth	62.4%
Cn1nc(C2COC3(CCCCC3)O2)cc1-c1ccccc1 (stereo not shown)	Pseudomonas aeruginosa	crystal violet staining		500 µg/mL, 24 h	reference: untreated	residual biofilm	25 ± 11%
N=C(N)c1ccc(OCCCCCOc2ccc(C(=N)N)cc2)cc1	Pseudomonas aeruginosa		ATCC 27853	concentration not given, with: rifampicin		MIC in combination	100 mg/L
Cn1nc(-c2ccccc2)cc1C1COC2(CCCCC2)O1 (stereo not shown)	Pseudomonas aeruginosa	crystal violet staining		500 µg/mL, 24 h	reference: untreated	residual biofilm	61 ± 9%
Cn1c(N)c(C(=O)CCl)c(=O)[nH]c1=O	UCHL1	covalent, intact protein LC-MS		12.5 µM		labelling	15.3%
N=C(N)c1ccc(OCCCCCOc2ccc(C(=N)N)cc2)cc1	Pseudomonas aeruginosa			100 µM	reference: untreated	growth	86.2%
CC[C@H](C)CCCCC(=O)N[C@@H](CCN)C(=O)N[C@H](C(=O)N[C@@H](CCN)C(=O)N[C@H]1CCNC(=O)[C@H]([C@@H](C)O)NC(=O)[C@H](CCN)NC(=O)[C@H](CCN)NC(=O)[C@H](CC(C)C)NC(=O)[C@@H](CC(C)C)NC(=O)[C@H](CCN)NC1=O)[C@@H](C)O	Pseudomonas aeruginosa	broth microdilution	ATCC 25922, cation-adjusted Mueller-Hinton broth			MIC	0.428 µM
N=C(N)c1cccc(OCc2ccc(COc3cccc(C(=N)N)c3)cc2)c1	Pseudomonas aeruginosa		ATCC 27853	concentration not given, with: rifampicin		MIC in combination	100 mg/L
Cc1cccc(C(=O)C#Cc2ccc(F)c(F)c2)c1	Pseudomonas aeruginosa	static biofilm	PA14	10 µM, 24 h, static	reference: DMSO	biofilm formation	64%
C[C@@H](O)[C@H]1C(=O)N2C(C(=O)O)=C([C@H]3CCCO3)S[C@H]12	Pseudomonas aeruginosa	checkerboard	carbapenem-resistant	concentration not given, with: anionic gold nanoparticle 8 µg/mL	reference: MIC alone over combination	MIC fold reduction	> 64 fold
N=C(N)c1ccc(OCc2ccc(-c3ccccc3)cc2COc2ccc(C(=N)N)cc2)cc1	Pseudomonas aeruginosa	checkerboard	ATCC 27853	unit not given, with: rifampicin	lower = stronger synergy	FICI	0.094
COC(=O)[C@H](Cc1c[nH]c2ccccc12)NCc1cc2ccccc2nc1SC	Pseudomonas aeruginosa			2 µg/mL, with: pentamidine 100 µM	reference: control	growth	73.9%
CCN1CCN(C(=O)N[C@@H](C(=O)N[C@@H]2C(=O)N3[C@@H]2SC(C)(C)[C@@H]3C(=O)O)c2ccccc2)C(=O)C1=O	Pseudomonas aeruginosa		R16-49 PER-producing isolate			MIC	> 128 mg/L

Compound	tested on	test	system	conditions	how to read	quantity	result
CC1(C)OCC(C(=O)NCCc2ccccc2)O1 (stereo not shown)	Pseudomonas aeruginosa	crystal violet staining		500 µg/mL, 24 h	reference: untreated	residual biofilm	38 ± 7%
N=C(N)c1ccc(OCc2cc(Br)cc(COc3ccc(C(=N)N)cc3)c2)cc1	Pseudomonas aeruginosa	checkerboard	ATCC 27853	unit not given, with: rifampicin	lower = stronger synergy	FICI	≤ 0.078
COc1cc(C#CC(O)c2ccccc2)ccc1O (stereo not shown)	Pseudomonas aeruginosa	static biofilm	PA14	10 µM, 24 h	reference: DMSO	biofilm formation	51%
CN[C@H](CC(C)C)C(=O)N[C@H]1C(=O)N[C@@H](CC(N)=O)C(=O)N[C@H]2C(=O)N[C@H]3C(=O)N[C@H](C(=O)N[C@H](C(=O)O)c4cc(O)cc(O)c4-c4cc3ccc4O)[C@H](O)c3ccc(c(Cl)c3)Oc3cc2cc(c3O[C@@H]2O[C@H](CO)[C@@H](O)[C@H](O)[C@H]2O[C@H]2C[C@](C)(N)[C@H](O)[C@H](C)O2)Oc2ccc(cc2Cl)[C@H]1O	Pseudomonas aeruginosa		ATCC 47085	20 h		MBC	1000 mg/L (≈ 690 µM)
CNC(C)C1CCC(N)C(OC2C(N)CC(N)C(OC3OCC(C)(O)C(NC)C3O)C2O)O1 (stereo not shown)	Pseudomonas aeruginosa	broth microdilution, absorbance	clinical isolate P.A19, RPMI with 1640% FBS	24 h, 37 °C		MIC	32 µM
C[C@@H](O)[C@H]1C(=O)N2C(C(=O)O)=C(S[C@@H]3CN[C@H](C(=O)Nc4cccc(C(=O)O)c4)C3)[C@H](C)[C@H]12	Pseudomonas aeruginosa	checkerboard	carbapenem-resistant	concentration not given, with: anionic gold nanoparticle 8 µg/mL	reference: MIC alone over combination	MIC fold reduction	32 fold
COc1cccc(C(=O)C#Cc2ccc(F)c(F)c2)c1	Pseudomonas aeruginosa	RT-qPCR, refers to: phzC1	biofilm cells	10 µM, 24 h	reference: untreated	mRNA level	44%
CC(C)c1ccc(/C=C2\N/C(=N/c3ccccc3)N(N)C2=O)cc1	Pseudomonas aeruginosa		ATCC 27853	concentration not given		inhibition zone diameter	13 ± 0.67 mm
COc1ccccc1C(=O)C#Cc1ccc(F)c(F)c1	Pseudomonas aeruginosa	biofilm formation	PA14	static		IC50	33 µM
O=C(NCCc1ccccc1)C(O)CO (stereo not shown)	Pseudomonas aeruginosa	crystal violet staining		500 µg/mL, 24 h	reference: untreated	residual biofilm	43 ± 16%
O=c1c2cc(Cl)ccc2[nH]c(=S)n1Cc1cccnc1	Pseudomonas aeruginosa					MIC90	> 100 µM
CC#CC(=O)N(CCOC)Cc1cccs1	UCHL1	covalent, intact protein LC-MS		12.5 µM		labelling	9.47%
O=C(NCc1ccccc1)C1COC2(CCCCC2)OC1	Pseudomonas aeruginosa	crystal violet staining		500 µg/mL, 24 h	reference: untreated	residual biofilm	16 ± 4%
N=C(N)c1ccc(OCc2cc(COc3ccc(C(=N)N)cc3)cc(-c3ccccc3)c2)cc1	Pseudomonas aeruginosa		ATCC 27853	concentration not given, with: rifampicin		MIC in combination	25 mg/L
CC(=O)N[C@@H](CS)C(=O)O	Pseudomonas aeruginosa	crystal violet staining		500 µg/mL, 24 h	reference: untreated	residual biofilm	18 ± 6%
CC[C@H]1OC(=O)[C@H](C)[C@@H](O[C@H]2C[C@@](C)(OC)[C@@H](O)[C@H](C)O2)[C@H](C)[C@@H](O[C@@H]2O[C@H](C)C[C@H](N(C)C)[C@H]2O)[C@](C)(O)C[C@@H](C)C(=O)[C@H](C)[C@@H](O)[C@]1(C)O	Pseudomonas aeruginosa	quorum sensing	ATCC 10145-GFP	sub-MIC, 24 h, RPMI 1640, 10% FBS	reference: untreated	GFP fluorescence reduction	40 to 65%
O=C(NCCc1ccccc1)C1COC2(CCCCC2)OC1	Pseudomonas aeruginosa	crystal violet staining		500 µg/mL, 24 h	reference: untreated	residual biofilm	18 ± 4%
C[C@@H](O)[C@H]1C(=O)N2C(C(=O)O)=C(SCCN=CN)C[C@H]12	Pseudomonas aeruginosa		PAO1, mouse, lung	dose not given		lung bacterial load	7.81 log CFU and 1.6 log CFU and 6.51 log CFU

Some of these lines once more:
Compound	tested on	test	system	conditions	how to read	quantity	result
CC[C@H](C)[C@H](NC(=O)CNC(=O)[C@@H](NC(=O)[C@H](Cc1ccccc1)NC(=O)[C@H](Cc1ccc(O)cc1)NC(=O)[C@@H]1CCC(=O)NCC(=O)NCC(=O)N[C@@H](C)C(=O)NCC(=O)N[C@@H](Cc2c[nH]cn2)C(=O)N[C@@H](C(C)C)C(=O)N2CCC[C@H]2C(=O)N1)C(C)C)C(=O)NCC(=O)N[C@H](C(=O)N1CCC[C@H]1C(=O)N[C@H](C(=O)N[C@@H](CO)C(=O)N[C@@H](Cc1ccccc1)C(=O)N[C@@H](Cc1ccc(O)cc1)C(=O)NCC(=O)O)[C@@H](C)CC)[C@@H](C)O	Pseudomonas aeruginosa			concentration not given		growth inhibition	no effect
COc1cc(C#CC(=O)CC(C)C)ccc1O	Pseudomonas aeruginosa	RT-qPCR, refers to: phzC1	biofilm cells	10 µM, 24 h	reference: untreated	mRNA level	63%
CN[C@H](CC(C)C)C(=O)N[C@H]1C(=O)N[C@@H](CC(N)=O)C(=O)N[C@H]2C(=O)N[C@H]3C(=O)N[C@H](C(=O)N[C@H](C(=O)O)c4cc(O)cc(O)c4-c4cc3ccc4O)[C@H](O)c3ccc(c(Cl)c3)Oc3cc2cc(c3O[C@@H]2O[C@H](CO)[C@@H](O)[C@H](O)[C@H]2O[C@H]2C[C@](C)(N)[C@H](O)[C@H](C)O2)Oc2ccc(cc2Cl)[C@H]1O	Pseudomonas aeruginosa		ATCC 47085	20 h		MBC	1000 mg/L (≈ 690 µM)
